Measurements of several laboratories.
Each numbered part is a random draw from the data of one study; scales do not carry over between parts. Changes are numbered by the printed parent chain.

Set 1
Target: RNA binding protein fox-1 homolog 2, RRM domain, GST-SBP tag (RBFOX2, Homo sapiens, UniProt O43251-10, residues 100-194)
Technique: RNA Bind-n-Seq
Molecule type: RNA
Medium: in vitro
Concentration: 365 nM
Notes: natural RNA segment, single round, ends assumed
Relative to: no-protein control
Direction: higher = stronger binding
All sequences stand within: GGGAGUUCUACAGUCCGACGAUC … UGGAAUUCUCGGGUGCCAA
Target sequence (chain): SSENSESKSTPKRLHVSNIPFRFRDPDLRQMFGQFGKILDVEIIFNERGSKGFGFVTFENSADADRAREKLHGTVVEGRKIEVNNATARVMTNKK
| Oligonucleotide | RBNS enrichment (R) |
| --- | --- |
| UCAGCUGGUGACACAGCUGCACUGGCAAGAAAAUGGACCCACCUUUUCCAGCACACCUUACCGCUACCAGGCCUGCAGGUUUGGGCAGGUUCCAGACCAGCCUGCUGGCC | 0.396 |
| UGUAUAGUAGAAAAUAAGCUUUGUGCAUCUGUAUUUGAGAUAUGUUAAUGACGUGGAGUAAAGUCAGCUGUAAGACUCUGGAGGCAAACAAGUUGUAUAUGGUUCAUAUG | 1.18 |
| CCUAAGGCAUCAUGCCUCAGCCCCUUGCACUGUAUGUUCCUAUAUGUCUACUUGUAUUGAUCCUUUGGGUCUCCUGGCCCAUUGCUAGGCACUGUUUGUGUGUUAUUAAU | 1.18 |
| UUGUAUUUUGGAAGACAGGUUUUUUAAAGAAACAUUUUCCUCAGAUUAAAAGAUGAUGCUAUUACAACUAGCAUUGCCUCAAAAACUGGGACCAACCAAAGUGUGUCAAC | 0.274 |
| GUCUUCAGCACUCCUGAGAAGUUGGCUCUUUACCCCUUCUCCUCUGCUGCCCCUCCUUCCUGCUGGUUCAGGUAGCCCCAGCCACGUGGGUUAGAGUCCUGUGCUGGCCU | 0.336 |
| UUUAUUUUUAACUGUUUGCCACUGCUGCCCUCACCCCUGCCCGGCUCUGGAGUACCGUCUGCCCCAGACAAGUGGGAGUGAAAUGGGGGUGGGGGGAAGCACUGAUUCCC | 0.278 |
| GAAAAGUAUUUUCUGUUAAUUUUUUUAAUUUUUGGCCAAAUUAUUUUCUCUUUGUCAUUAAAGUCAAAUGUCUAUCUGGCUCACCACAAAGUGUUCUUUGAUUUUGGCUU | 0.458 |
| CCAGUUUCUCCUGUACAAAUCCCUGGCUCCUCGUGGGUCCUCGGGACCCGUACCAUACCUGCAAUGGUGUACAGGGCCGUAAUGGCGAGCGUGAGGAUGGUGGACAGGUA | 0.348 |
| UUGUUUCUGGUUCACGUGGGGCCACCUGAAUCCGUGUCUGUGAGCAUUGACGCUUGAGUGAGCACGCCAGCGUCCUUGUCCUUAUGGGAUGCCUCAGGAUCUUGUUUCUG | 0.525 |
| AUUUCGAUUGUGUGACAGAUUGAAAUUUAUUGUUUACAUUGGGGAAUGUAUCUCAAAUUUUUAAAUAGAAGAGUAAUAAACAGACUUUAAAGCAAAUAUUAAGAUUUUUA | 0.814 |
| GUAAAUAAAUGUAUAUGUGUUUCUAUAAUUCUGGAGAGAUAUGGAAUCCUCCCCUUUCUGGCACAAGACAGAAAGCAAGCAGCUGAGUAACUGGAGACCAGUGGAAAUGA | 0.78 |
| UAUACCAUUAUGUGCAUGUUAUUGGUAGCAGGCAUAGUUUAUUAUUUAGUACUGAAACAUGCUCUUUUACCUAACAGUAAACAAGUAUGUUUUGAUAUAUAUCUGUUAAU | 10 |

Set 2
Target: Sal-like protein 4, full length isoform B (SALL4, Homo sapiens, UniProt Q9UJQ4-2, residues 1-616)
Technique: universal PBM
Molecule type: double-stranded DNA, one strand shown
Medium: in vitro
Concentration: not given
Notes: 8-mer, flanks averaged, mean of replicates
Direction: higher = stronger binding
Residues (chain): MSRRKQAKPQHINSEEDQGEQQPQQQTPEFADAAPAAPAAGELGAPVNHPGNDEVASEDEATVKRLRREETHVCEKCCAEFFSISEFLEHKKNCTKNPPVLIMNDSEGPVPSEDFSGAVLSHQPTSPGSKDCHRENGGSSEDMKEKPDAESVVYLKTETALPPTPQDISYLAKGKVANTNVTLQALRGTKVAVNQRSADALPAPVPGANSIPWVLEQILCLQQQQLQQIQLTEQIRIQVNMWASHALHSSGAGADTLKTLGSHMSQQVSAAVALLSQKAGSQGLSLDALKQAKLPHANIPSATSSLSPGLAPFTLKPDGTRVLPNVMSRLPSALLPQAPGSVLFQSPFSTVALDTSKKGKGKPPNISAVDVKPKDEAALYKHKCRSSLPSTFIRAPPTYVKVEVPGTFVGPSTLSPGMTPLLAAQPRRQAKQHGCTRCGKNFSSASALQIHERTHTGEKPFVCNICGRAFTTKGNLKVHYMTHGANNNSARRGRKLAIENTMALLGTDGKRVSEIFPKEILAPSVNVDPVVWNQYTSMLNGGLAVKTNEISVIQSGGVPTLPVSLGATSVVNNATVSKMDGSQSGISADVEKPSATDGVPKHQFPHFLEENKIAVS
| Oligonucleotide | E-score |
| --- | --- |
| GGCGAGAC | -0.302 |
| TTATCAAA | 0.234 |
| CTACATCC | 0.0537 |
| GATCAGCC | -0.314 |
| CAATAACC | 0.261 |
| GCCAACAA | -0.0616 |
| CCGGTGTA | -0.14 |
| ACGGGGCC | -0.316 |
| CATGATCA | 0.206 |
| CACTGGCG | -0.149 |
| ACTTATGG | 0.215 |
| AAACCGCC | -0.0993 |
| AGAATAAC | 0.189 |
| CGCGGACA | -0.0663 |

Set 3
Target: CCNF, cyclin fold, Cln2 fusion (human)
Technique: yeast growth competition, sequencing
Medium: yeast
Notes: strong parent motif
Relative to: not given
Direction: higher = stronger binding
Parent: E2F3 docking peptide (human); PPAKRRLELGESG; partner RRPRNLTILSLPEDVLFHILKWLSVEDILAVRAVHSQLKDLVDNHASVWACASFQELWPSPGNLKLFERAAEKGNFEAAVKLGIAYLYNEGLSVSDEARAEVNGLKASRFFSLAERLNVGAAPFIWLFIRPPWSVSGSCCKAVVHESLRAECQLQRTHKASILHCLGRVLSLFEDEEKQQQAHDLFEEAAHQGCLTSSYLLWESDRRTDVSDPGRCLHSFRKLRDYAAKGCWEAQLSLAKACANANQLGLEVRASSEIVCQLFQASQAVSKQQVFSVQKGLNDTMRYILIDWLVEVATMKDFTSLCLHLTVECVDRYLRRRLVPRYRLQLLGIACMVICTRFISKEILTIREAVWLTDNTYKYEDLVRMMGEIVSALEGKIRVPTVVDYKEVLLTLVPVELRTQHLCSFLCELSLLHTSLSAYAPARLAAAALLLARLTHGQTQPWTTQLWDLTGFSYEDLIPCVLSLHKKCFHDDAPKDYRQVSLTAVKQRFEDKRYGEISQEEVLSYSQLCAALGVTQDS
| Variant | normalised enrichment score |
| --- | --- |
| APAKRRLELGESG [P1A] | 6.6 |
| PPAKRALELGESG [R6A] | 3.41 |
| PPAKRRLELGASG [E11A] | 6.76 |
| PPAKKRLEFGESG [R5K L9F] | 7.48 |
| PPAKRRLALGESG [E8A] | 5.73 |
| PAAKRRLELGESG [P2A] | 7.01 |
| PPAARRLELGESG [K4A] | 5.27 |

Other studies, line by line
| Molecule | target | assay | system | conditions | how to read | measurement | result |
| --- | --- | --- | --- | --- | --- | --- | --- |
| PhoQ, residues 284 288 289 292 302 303 ASHLAV | PhoP, residues 12 14 15 18 19 SYFRT (Escherichia coli, UniProt P23836) | Sort-seq, measured: YFP reporter | E. coli | PhoQ-PhoP variant library, with: 10 µM Mg2+ | relative to: high Mg2+ state, higher = stronger signaling | fold induction | 1.12 |

For quick reference, copied from above (set 2):
| Oligonucleotide | E-score |
| --- | --- |
| GCCAACAA | -0.0616 |
| ACTTATGG | 0.215 |
| CAATAACC | 0.261 |
| GGCGAGAC | -0.302 |
